Assay results gathered from unrelated publications.
Numbered parts are unrelated; each lists some results of a single study.

Set 1 — technique: RNA Bind-n-Seq; molecule type: RNA; matrix: in vitro; tested at: not given; relative to: input RNA pool; direction: higher = stronger binding
Target: RING finger protein unkempt homolog, zinc fingers 1-6, GST-SBP tag (UNK, Homo sapiens, UniProt Q9C0B0, residues 30-357)
UniProt Q9C0B0, sequence (30-357, looked up): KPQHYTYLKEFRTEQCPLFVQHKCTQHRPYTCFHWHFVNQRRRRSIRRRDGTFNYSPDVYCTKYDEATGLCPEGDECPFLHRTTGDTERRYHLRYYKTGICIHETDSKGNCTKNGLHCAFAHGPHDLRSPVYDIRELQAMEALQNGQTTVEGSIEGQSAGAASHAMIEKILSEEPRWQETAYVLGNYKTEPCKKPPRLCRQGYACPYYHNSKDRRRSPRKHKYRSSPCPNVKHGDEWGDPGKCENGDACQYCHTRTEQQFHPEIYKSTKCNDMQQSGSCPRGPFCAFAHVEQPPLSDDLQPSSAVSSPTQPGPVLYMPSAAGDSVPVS
Notes: RNA with constant flanks, human and mouse sites, ends assumed
Shared flanks, not repeated: GGGAGUUCUACAGUCCGACGAUC … CAACAGAGGAUUGAGCAUCA
Strand | bound/input enrichment [ratio]
GAAAGACCAGAUCUCAGGGAAAAGGUCAUUAAAGGAGCAGAGAUUCUUGAAGUGUUGCACAGUCUUCCAGCAGUUCGGCAGUAUCUGUUUUCACUCUAUGAAUGCCGUUACUCUGUUUUC | 0.257
UGCUGCUGAAGGGUGUGUCUUGGGGCACACAUCCACUUUGAUUUUGCUUUACUCUUCCAGAAUAGUUGCUGCGUAAUAGAAAUUACAUUUUUCUACUUGAUGGGUCAUCUUAAAUCUGGU | 1.24
GACUUAGAUAAUUCUUUGGAAGUGAAAGCUAAACCUGCUUCUGGCCUAGAUGGUAAUUUCAAUAGUGUCCGAAUGGAUAUGUUCAGUGUGUAGGAGUGAAGACAGGAUCCCGUGCUUAAA | 0.666
GCAGCUGCAGUUGCACUUUCCUCCCUGAUUCAUGCUUUGGAUGACUUAGACAUGGUGGCCAUAGUUCGAUAUGCUUAUGACAAAAGAGCUAAUCCUCAAGUCGGCGUGGCUUUUCCUCAU | 0.448
CAGUUGAAGUAUCAGAGAAUCUUGGAACGAUUAGAAAAGGAGAACAAAGAAUUGAGAAAAUUAGUAUUGCAGAAAGAUGACAAAGGCAUUCAUCAUAGAAAGCUUAAGAAAUCUUUGAUU | 5.35
GUGCUCCAGGUGGACUCUGGUGCCAACGCCACGGCCACGGCUCGCUGGCCUGGGGGCAGUGUCAGCGCCCGCUUUGAGAAUGUCUGCCCUGCCCUGGUGGCCACCUUCGUGCCCGGCUGC | 0.104
CAGAGAAGAAGGGAAAGGCCAAAGACACCACCUAGUAAUCUCUCUCCCAUUGAAGAUGCAUCUCCGACAGAAGAGUUACGUCAGGCUGCAGAAAUGGAGGAGCUCCAUAGAUCUUCUUGU | 0.301
CGGAAUUGGGAUGACAUGAAGCACCUGUGGGACUACACAUUUGGACCAGAGAAACUCAAUAUAGACACCAGAAACUGCAAGAUUUUACUUACAGAACCUCCCAUGAAUCCAACCAAAAAC | 0.61

Set 2 — technique: protein binding microarray; molecule type: double-stranded DNA, one strand shown; matrix: in vitro; tested at: not given; relative to: not given; direction: higher = stronger binding
Target: Histone acetyltransferase KAT6A, winged helix 1, GST fusion (KAT6A, Homo sapiens, UniProt Q92794, residues 1-85)
Notes: 8-mer, flanks averaged, mean of 2 arrays, mostly near background
Construct (chain): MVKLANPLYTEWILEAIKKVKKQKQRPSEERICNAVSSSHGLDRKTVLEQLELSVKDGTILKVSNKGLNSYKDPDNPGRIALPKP
Strand | E-score
ACAATGAA | -0.299
GGGGGCTA | -0.0329
ACTAACCC | -0.118
AATTTTGG | -0.134
CCCCCCGA | 0.13
GTATGGGA | -0.015
CAGCGAGC | 0.0582
TCCTTTAA | -0.141
ACGGTGGC | 0.112
AAGCGTGT | 0.14
AGTAATAG | -0.00029
AATTCCTG | -0.0825
ATACCCCA | -0.188
ATCCCCCG | 0.24
CTGGCCTC | 0.0442
GTGGATCA | -0.139
GGTCTTGA | -0.0591
AGGCGGTC | 0.166
CTCCAATC | -0.205
TACTAAAA | 0.0169
CAATTGCG | 0.21
AAACCACA | -0.119
GCGAGACA | 0.1
CGATTGAG | -0.0615
CTCGATGC | -0.0488

Set 3 — technique: RNA Bind-n-Seq; molecule type: RNA; matrix: in vitro; tested at: 200 nM; notes: whole 134-nt RNA, ends assumed; together with: 150 mM LiCl; relative to: input library; direction: higher = stronger binding; library: 7-deaza-guanosine replaces G
Target: Fragile X messenger ribonucleoprotein 1, C-terminal low-complexity region (Fmr1, Mus musculus, UniProt P35922)
Shared flanks, not repeated: GGGAGUUCUACAGUCCGACGAUC … UGGAAUUCUCGGGUGUCAAGG
Strand | log2 enrichment
GUCCUGUGCUACACAUCGUAUGUACCGAAUCGGGGUUUUUGGGGAAAAAGGGGUGGGGAAAGUAUUAUGUUACGCCGUUCGGAUCUGCAC | -1.55
AGUCCUGUGCUACACAUCGUAUGUACCGAAUCGGGAAAAAAAGGGUGGGUUUUUGGGAAAGUAUUAUGUUACGCCGUUCGGAUCUGCACU | -2.41
UAACUUUAGAUGAGGAUCUGAUGGAUAUGGCAGUGGACGUGGAUUUGGGGAUGGCUAUAAUGGGUAUGGAGGAGGACCUGGAGGUGGCAA | -0.0345
GUCCUGUGCUACACAUCGUAUGUACCGAAUCAAACCCCCCCAAAUUUUUAAAUUUAAAAAAGUAUUAUGUUACGCCGUUCGGAUCUGCAC | 1.67
CCUGUGCUACACAUCGUAUGUACCGAAUCGGGGAAAAAAAGGGGAAAAAAAGGGGAGGGGAAAGUAUUAUGUUACGCCGUUCGGAUCUGC | 1.15
AAGUCCUGUGCUACACAUCGUAUGUACCGAAUCGGUUUUUUUGGUUUUUGGUUUGGAAAGUAUUAUGUUACGCCGUUCGGAUCUGCACUU | -2.71
UCAAGUCCUGUGCUACACAUCGUAUGUACCGAAUCGGUUUGGGUUUGGGGUUUGGAAAGUAUUAUGUUACGCCGUUCGGAUCUGCACUUC | -1.56
CACAGACAACACGCACCCACACAGACACAGAGGGAAGGGGUUGGGAUGGGGACAGGGUGCACAGCUGGGCGGGGUAGGACCCCAGCCCCU | -0.431
CUGUGCUACACAUCGUAUGUACCGAAUCGGGAAAAAAAGGGUUUUUUUGGGUUUUUUUGGGAAAGUAUUAUGUUACGCCGUUCGGAUCUG | -2.37
CCUGUGCUACACAUCGUAUGUACCGAAUCGGGGUUUUUUUGGGGUUUUUUUGGGGUGGGGAAAGUAUUAUGUUACGCCGUUCGGAUCUGC | -0.112
UUUUCUGCAUGGACCGUGCCCUAGAAUUUGCCCCUGCCUGCCAUCGCUUCAAAAUCCUCAAGGCAGAAUGUUUAGCAAUGCUGGGUCGUU | -0.171

Set 4 — technique: protein-binding microarray; molecule type: double-stranded DNA, one strand shown; matrix: in vitro; tested at: 250 nM; notes: 60-bp whole probe; together with: salmon DNA 0.4 mg/ml; relative to: random background probes; direction: higher = stronger binding; shared flanks, not repeated: GCCTAGCAC … GTCTTGATTCGCTTGACGCTGCTG
Target: Interferon regulatory factor 5, full length, phosphomimetic (IRF5, Homo sapiens, UniProt Q13568-2, residues 1-514, K96S/S451D/S453D/S456D/S462D)
Strand | log fluorescence [z-score]
TTAGGTATCCTTTTGCTTTAGTGCTAG | 0.647
TTAGAACTGTGTATCGATTAGTGCTAG | 3.91
GACGGATTCGGTCTCGGGACGTGCTAG | 0.444
TTAGGGCTGCTACTGCTTTAGTGCTAG | -0.595
TTAAGACTGGGTATCGGTTAGTGCTAG | 5.04
TCATTTTCATATATATAACTGTGCTAG | 3.32
TTTTCATTATTGTCTCCCCCAGTGCTA | 2.34
TCAGCTCTGTGCATAGTACTGTGCTAG | -0.171
GACGGTATAGGGACTGGGGACGTGCTA | -0.425
TCAGATCTGCCGTCCCACACTGTGCTA | -0.1
GACGAAATCAGTCTCGAGACGTGCTAG | 0.912
TTAGAACTGGGGTTGCGATTAGTGCTA | 0.216
TTAGGATTGCTACTGCTTTAGTGCTAG | 0.025

Set 5 — technique: RNA Bind-n-Seq; molecule type: RNA; matrix: in vitro; tested at: 365 nM; relative to: no-protein control; direction: higher = stronger binding
Target: RNA binding protein fox-1 homolog 2, RRM domain, GST-SBP tag (RBFOX2, Homo sapiens, UniProt O43251-10, residues 100-194)
Notes: natural RNA segment, single round, ends assumed
Shared flanks, not repeated: GGGAGUUCUACAGUCCGACGAUC … UGGAAUUCUCGGGUGCCAA
Target sequence (chain): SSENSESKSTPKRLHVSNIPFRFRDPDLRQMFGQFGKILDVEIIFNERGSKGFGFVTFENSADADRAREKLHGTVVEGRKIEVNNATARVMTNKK
Strand | RBNS enrichment (R)
CCCUCCACGCCCUCCGUGAGGUUGUCCAGGCUGUGUUCUCUCGCAUGCUUCUCUUCUAUAUAACCCUCAUCUUCUCAUUUUAUGGGAUUCAACACAAAGUCUACUUAUGC | 5.85
UCUCUCUUGCUGAAUGCACAUAUGUGCACACAUGUCAGCAUGUGCAUGCUCACUCCCCCACUUCUCACCUGCCAACAUCCUGGCCUCUGGCCGUGGCACUGGUGCCAGUA | 8.84
UCACUUUAAAGACUUGUGCUAUUUGGAAGCAAAGCUAUUUUUUUUGUCAGUGGAAUGCAGUUUUUUUACUAUUCCAUCAUGAGGAACAACAUAGAUUCCAUGAUCUUUUU | 0.767
CCUUCUCACUGGUGUAUUUUGAAAACCACCACAGUCCGAUGUCCUGUGCCAUGUCUGUCAUUCCUGUUGAACAGACUCUUCCUGUCUGGUGACCACCUAUGCUUCAGUGC | 0.429
GACCAUUAUAAGAAAAGAUAUAUGGAGUUGUAUCUUACUGGAAUUAAUAAACACUGCUUGACCACCGUGUUCUGUUUCAAUUUGUAACAGCUGUCCUAAUUUAAACUCAC | 0.733
UCACAGUGCACCAUGUCACUGUGCUAUCCUACGAAAUCAUUUGUUUCUAAGUUGUGUUUAUUCCUGGAGUGACAUGCCACCCCGAAUGGCUCACUUUCACUGAGGAUGCU | 0.307
AUUUUAGAAAAAGAAGCUUAAUCUAACGUUUUCAAACACAAGGUCUCUUACAGGUAUAGUUCCGUGAUUAUGAUAGCUCUGUGAUUAUAAGCAACAUCCCCGCCCCCUCU | 0.395
AGAUUUUCUUCUGAGAAGAAUUUGUGUUUAAUUUUUGAUACCAACACUGAACAUUCAUCAGGGAACUUUCCUCAAGUCUAACUGCUGUGUUUGUGAGAAGAGCAGAAUCA | 0.437
GGGAUCCCUCUCAUGCGGUGGGUCCCAGGGACACUAGAGCCCCUGGUCUGAGAGGGAGAAGCCUGGAUGUAGGAAAACCCGUUUCCACCCCAGGCCCUACUCCCUAGCCU | 0.215
CUGCUUCGGGGCCAUGCAGCCCUCCUGCCAGCCCCCUGCCCUUUUCUUGCCCUGUCUCUGAACCUUCAGAACAUUGAUCCUUGCCGCAGCCCCACUAGCCAAGAGAAACA | 0.469
UUGCAGGCCUGCACAGGCUGGGGAGUCCUCAGGACCUUAGGACCUUCAUCCAGGGGCUGGGCUUCGGGUCUUCAGGAGUGGGCCUUGGCUGGUGCUGGUGCCAUGGACUC | 0.753
ACCCUGCUUCUUGAGGUCCCUGGAGCCCCAGGUGGGCUGAGGGGCAGGGAGCCGGCUGUGCCCAGUAUGCCUCCUGGACCCUCCAGUUCUGCCACAGGUCUGCCGAUGCC | 0.513
